# Published values gathered from unrelated publications.
# Numbered parts are unrelated; each lists some results of a single study. Changes are numbered by the printed parent chain.

# Series 1 — method: universal PBM; molecule type: double-stranded DNA, one strand shown; medium: in vitro; concentration: 600 nM; reading: higher = stronger binding
# Target: Sal-like protein 4, full length isoform A (SALL4, Homo sapiens, UniProt Q9UJQ4, residues 1-1053)
# UniProt Q9UJQ4, sequence (whole entry, looked up): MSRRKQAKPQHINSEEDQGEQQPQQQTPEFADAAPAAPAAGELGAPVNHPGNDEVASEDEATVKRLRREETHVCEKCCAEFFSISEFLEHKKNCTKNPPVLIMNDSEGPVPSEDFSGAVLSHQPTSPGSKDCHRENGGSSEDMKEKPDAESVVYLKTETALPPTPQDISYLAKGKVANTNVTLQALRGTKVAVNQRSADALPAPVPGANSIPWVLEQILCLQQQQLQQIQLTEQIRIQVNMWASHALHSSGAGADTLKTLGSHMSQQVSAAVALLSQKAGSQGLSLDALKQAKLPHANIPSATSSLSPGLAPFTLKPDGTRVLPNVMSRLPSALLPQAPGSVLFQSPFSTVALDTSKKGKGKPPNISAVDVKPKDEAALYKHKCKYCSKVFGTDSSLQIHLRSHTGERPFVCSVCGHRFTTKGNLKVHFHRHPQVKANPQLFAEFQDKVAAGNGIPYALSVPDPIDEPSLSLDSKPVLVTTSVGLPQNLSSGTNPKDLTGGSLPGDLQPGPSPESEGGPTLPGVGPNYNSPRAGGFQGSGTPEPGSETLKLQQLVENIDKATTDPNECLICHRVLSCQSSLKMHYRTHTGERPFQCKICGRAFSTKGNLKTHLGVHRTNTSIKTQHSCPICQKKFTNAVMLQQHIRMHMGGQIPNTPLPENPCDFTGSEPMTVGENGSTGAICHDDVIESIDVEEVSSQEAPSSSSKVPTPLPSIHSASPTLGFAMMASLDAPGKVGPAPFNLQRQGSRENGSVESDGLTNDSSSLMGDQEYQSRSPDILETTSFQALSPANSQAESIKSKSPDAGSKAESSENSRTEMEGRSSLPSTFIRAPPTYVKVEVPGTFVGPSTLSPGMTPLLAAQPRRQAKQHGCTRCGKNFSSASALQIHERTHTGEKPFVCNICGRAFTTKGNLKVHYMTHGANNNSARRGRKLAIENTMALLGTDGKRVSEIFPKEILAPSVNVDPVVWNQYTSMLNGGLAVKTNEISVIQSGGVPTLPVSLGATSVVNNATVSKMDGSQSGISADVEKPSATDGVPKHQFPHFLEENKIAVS
# Notes: 8-mer, flanks averaged, mean of replicates
Strand,E-score
CAATAAAC,0.269
ATGAGATG,0.0365
AACAACAG,0.0798
AATACTAA,0.3
CACGACAC,-0.0392
ACATTCAC,0.105
TATTCTCA,0.21
GGTGGAAA,-0.137
ATGCTCTA,0.0239
CCTTGAAG,0.0564
TCTTGTCA,0.156
CATCGCTC,-0.257
GGAGGTAA,0.0125
CTGGGTCA,-0.186
ACTATCGG,-0.0702
CGCAAGCG,-0.119
AGTTAAAT,0.269
CACCCGCG,-0.244
GTAGTTAA,0.14
ATAGAGAC,0.168
AAAACGCA,-0.0385
CCTATGCG,-0.0167
TACACGAA,0.117
AGCATCCC,-0.198
CTCCTACC,-0.0662

# Series 2 — method: RNA Bind-n-Seq; molecule type: RNA; medium: in vitro; concentration: not given; reference: input RNA pool; reading: higher = stronger binding
# Target: RING finger protein unkempt homolog, zinc fingers 1-6, GST-SBP tag (UNK, Homo sapiens, UniProt Q9C0B0, residues 30-357)
# Notes: RNA with constant flanks, human and mouse sites, ends assumed
# Shared flanks, not repeated: GGGAGUUCUACAGUCCGACGAUC … CAACAGAGGAUUGAGCAUCA
# Residues (chain): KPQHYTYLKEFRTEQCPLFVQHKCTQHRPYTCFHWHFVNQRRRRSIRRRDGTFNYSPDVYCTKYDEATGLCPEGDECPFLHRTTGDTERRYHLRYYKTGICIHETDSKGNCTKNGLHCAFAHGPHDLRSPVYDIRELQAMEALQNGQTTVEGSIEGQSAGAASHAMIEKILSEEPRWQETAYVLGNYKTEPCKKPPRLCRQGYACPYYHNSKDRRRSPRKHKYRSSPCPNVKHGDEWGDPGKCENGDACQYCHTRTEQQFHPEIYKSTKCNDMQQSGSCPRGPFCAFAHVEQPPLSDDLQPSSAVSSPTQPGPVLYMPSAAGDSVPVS
Strand,bound/input enrichment [ratio]
GCCAAGGCCAUCCAGCUGAACAGCAACAGCGUCCAGGCUCUGUUACUCAAGGGGGCGGCGCUUAGGAACAUGGGGAGGGUCCAGGAAGCCAUCAUACACUUUCGGGAGGCCAUCAGGCUU,0.0634
AUCCAGGCGGCCCAUGACUCCGUGGCCCAGGAGGGCCAGUGUCGGGUAGAUGACAAAGUGAAUUUCCAUUUUAUUCUGUUCAACAACGUGGACGGCCAUCUGUACGAGCUCGAUGGGCGA,0.0772
CUACAGUGAAACGGGAGAACUGCUUGGUUCGGGAUGGCUAGAGAAUCAAGGGAAAGCACAACCUUGGACUCACACUCUGCAGAGGACCAGAUGGAGCUACUGGUCAUAAAGGUGGAACAA,0.28
GGCACCUUCUUCCCCAUGGGGGAUGAGGGUGCCAGCAGCCAGAUCGGCCGGGCUGCGGGCACAGGCUUCACCGUCAACGUGGCAUGGAACGGGCCCCGCAUGGGUGAUGCUGACUACCUA,0.155
GUCUAUCUUAAUCUGGUGCUGGACUAUGUUCCGGAAACAGUAUACAGAGUUGCCAGACACUAUAGUCGAGCCAAACAGACGCUCCCUGUGAUUUAUGUCAAGUUGUAUAUGUAUCAGCUG,0.13
AGCAAUCCAGAUCUCUAUGGCCCCUUUUGGAUAUGUGCCACGUUGGUCUUUGCCAUAGCAAUUAGUGGGAAUCUUUCCAACUUCUUGAUCCAUCUGGGAGAGAAGACGUACCAUUAUGUG,0.155
AAAGGUGGACUGAAACCCCUGAUUCCUACCUUGGAAAAAAACAAAAGCAGCAGCAGAGGCAUCCAGACCCUGCUUGAGAAGCUGACUGCGUAGGCAGCAGGAUGAGCAAGCGGGAACCCG,0.217
GGAGAGGCCCUGCAUUGCCAGCUGUCCGUUCCUCCAUUCAUCUGUUUCUUCUGCUGCCCUUAGUUUGAUCCUCACCAUCCACGUUUUGGCUUCCGUUUGCCCUUAUCAAAGGGUCUCUGC,0.407
AGGAAAGCUUACAAAUAUGCUUAUGAUCAAUACAGGGACCAAUACAACUGGUUCUUCCUUGCACGCCCCACUACUUUCGCUGUUAUUGAAAACCUCAAAUAUUUUUUGUUAAAAAAGGAU,0.224
UUGCAACUCAGGUUUUAUUUAUUUUGAAACUAUCAGUUAUAUAAACCUAAUUUAUUAUCAAAUAUGAUGGUCAUUAAAAAUAUUUUUACAAGUUGAGAUUUUGACAGAUAGGUACUUGAU,0.698
CUAUUCGACUUAGGCUCCAACGUAACUGCAAUUUAAUGUUGGUAGUAUAGCAAAUUAUGAAUAGAUUUGUUGUAUGUUUUGAAGUCACAUGCUUACAUGCUUAAAUCUGGAUAUCAGAAU,0.893

# Series 3 — method: DHFR PCA, dose-response; medium: yeast; notes: Hill fit, mean, not affinity; with: (+)-ABA, dose series; reading: lower = more sensitive
# Target: ABI1, truncated, D143A, DHFR fusion (Arabidopsis thaliana, UniProt P49597)
# Starting sequence: PYL1, truncated, DHFR fusion (Arabidopsis thaliana, UniProt Q8VZS8); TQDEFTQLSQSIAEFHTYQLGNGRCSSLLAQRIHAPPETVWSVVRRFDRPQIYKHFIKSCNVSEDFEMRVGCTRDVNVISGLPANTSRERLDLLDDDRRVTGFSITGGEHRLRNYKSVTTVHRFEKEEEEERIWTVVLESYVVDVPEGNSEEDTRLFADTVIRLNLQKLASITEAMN
Change,ABA EC50 [µM]
E174G,19.1
E67L,8.27
A175D,1.93
V70W,194
I12Y,88.1
N22C,3.31
V40T,184
S9A,1.91
I133F,2.36
E109L,21
V43M,8.22
E14V,15.9
L112Y,440
Q7E,2.34
E147R,4.86
L138M,11.4
T17Q,9.31
S11V,1.44
R98G,30
F47Y,77
L29C,10.1
F124S,6.7
R98F,59.3
M176V,3.68
Q19E,1.9

# Series 4 — method: Sort-seq; refers to: YFP reporter; medium: E. coli; notes: PhoQ-PhoP variant library; with: 10 µM Mg2+; reference: high Mg2+ state; reading: higher = stronger signaling
# Substance: PhoQ, residues 284 288 289 292 302 303 TTCLQL
target,fold induction
"PhoP, residues 12 14 15 18 19 TQALL (Escherichia coli, UniProt P23836)",2.92
"PhoP, residues 12 14 15 18 19 QYFSL (Escherichia coli, UniProt P23836)",13.2
"PhoP, residues 12 14 15 18 19 NYFRM (Escherichia coli, UniProt P23836)",10.6

# Series 5 — target: CCNB1, cyclin fold, Cln2 fusion (human); method: yeast growth competition, sequencing; medium: yeast; notes: strong parent motif; reference: not given; reading: higher = stronger binding
# Starting sequence: INSM1 docking peptide (human); PKAIRKLHFEDEV
Change,normalised enrichment score
K6M,1.62
I4W,0.376
R5E,0.542
R5L,1.44
D11V,0.959
H8P,0.516
H8T,3.35
E12G,1.28
F9D,-0.219
D11C,1.49
K2N,3.89
E12V,1.22
E12P,1.43
H8Q,2.29
R5F,0.458
H8V,3.42
K6E,1.14
K6G,0.293
D11E,2.72

# A few entries again (series 5):
Change,normalised enrichment score
K6M,1.62
I4W,0.376
R5E,0.542
R5L,1.44
D11V,0.959
H8P,0.516
H8T,3.35
E12G,1.28
F9D,-0.219
D11C,1.49
